{"data": "Published values collected from several papers", "note": "± marks the error that the study gave.", "chain of UniProt Q96KQ7 (whole entry, looked up)": "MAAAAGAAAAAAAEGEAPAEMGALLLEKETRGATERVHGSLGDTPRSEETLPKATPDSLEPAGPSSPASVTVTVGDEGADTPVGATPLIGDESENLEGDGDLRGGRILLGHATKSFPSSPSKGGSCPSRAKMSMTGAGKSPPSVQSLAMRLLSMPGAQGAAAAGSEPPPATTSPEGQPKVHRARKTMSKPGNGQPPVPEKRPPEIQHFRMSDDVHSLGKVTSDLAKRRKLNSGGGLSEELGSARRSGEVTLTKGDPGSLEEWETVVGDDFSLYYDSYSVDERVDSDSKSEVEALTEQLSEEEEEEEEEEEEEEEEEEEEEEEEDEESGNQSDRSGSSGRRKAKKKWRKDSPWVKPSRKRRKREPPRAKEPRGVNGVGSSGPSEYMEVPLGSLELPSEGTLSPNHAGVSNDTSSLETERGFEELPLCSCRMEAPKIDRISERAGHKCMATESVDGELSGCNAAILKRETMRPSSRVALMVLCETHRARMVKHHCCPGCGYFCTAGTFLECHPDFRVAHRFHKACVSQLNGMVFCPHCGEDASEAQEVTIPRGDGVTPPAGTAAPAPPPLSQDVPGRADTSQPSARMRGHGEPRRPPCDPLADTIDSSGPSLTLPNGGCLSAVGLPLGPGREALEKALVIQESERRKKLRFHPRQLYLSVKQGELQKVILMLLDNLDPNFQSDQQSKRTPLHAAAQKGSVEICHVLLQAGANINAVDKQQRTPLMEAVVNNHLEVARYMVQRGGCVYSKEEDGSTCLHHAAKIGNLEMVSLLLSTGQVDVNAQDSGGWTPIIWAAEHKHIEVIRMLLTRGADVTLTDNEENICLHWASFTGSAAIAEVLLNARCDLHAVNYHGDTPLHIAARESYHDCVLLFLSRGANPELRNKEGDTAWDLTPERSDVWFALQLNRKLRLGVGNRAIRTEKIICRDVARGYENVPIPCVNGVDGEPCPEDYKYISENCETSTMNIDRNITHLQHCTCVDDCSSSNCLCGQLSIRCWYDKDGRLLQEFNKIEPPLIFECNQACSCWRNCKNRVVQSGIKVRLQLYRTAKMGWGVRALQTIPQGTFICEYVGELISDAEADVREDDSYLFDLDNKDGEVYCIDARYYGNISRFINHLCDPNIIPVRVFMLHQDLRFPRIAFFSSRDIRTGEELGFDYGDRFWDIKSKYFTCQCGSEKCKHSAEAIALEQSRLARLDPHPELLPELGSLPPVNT", "chain of UniProt P41020 (whole entry, looked up)": "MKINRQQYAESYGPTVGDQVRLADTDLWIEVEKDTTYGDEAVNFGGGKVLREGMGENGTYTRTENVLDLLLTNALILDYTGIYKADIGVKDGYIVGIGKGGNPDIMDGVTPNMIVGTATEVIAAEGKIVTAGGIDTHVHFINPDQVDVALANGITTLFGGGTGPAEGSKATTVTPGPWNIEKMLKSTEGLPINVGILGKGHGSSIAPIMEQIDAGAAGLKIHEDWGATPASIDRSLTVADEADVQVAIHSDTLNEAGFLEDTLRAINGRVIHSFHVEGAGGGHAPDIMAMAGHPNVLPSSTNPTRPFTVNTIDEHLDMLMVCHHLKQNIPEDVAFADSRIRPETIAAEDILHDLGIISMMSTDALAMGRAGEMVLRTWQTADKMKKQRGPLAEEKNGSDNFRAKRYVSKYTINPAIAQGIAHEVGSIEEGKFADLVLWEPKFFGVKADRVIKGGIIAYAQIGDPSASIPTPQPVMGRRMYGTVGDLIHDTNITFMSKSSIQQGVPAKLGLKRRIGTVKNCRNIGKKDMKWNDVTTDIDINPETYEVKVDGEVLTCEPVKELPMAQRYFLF", "chain of UniProt P21452 (whole entry, looked up)": "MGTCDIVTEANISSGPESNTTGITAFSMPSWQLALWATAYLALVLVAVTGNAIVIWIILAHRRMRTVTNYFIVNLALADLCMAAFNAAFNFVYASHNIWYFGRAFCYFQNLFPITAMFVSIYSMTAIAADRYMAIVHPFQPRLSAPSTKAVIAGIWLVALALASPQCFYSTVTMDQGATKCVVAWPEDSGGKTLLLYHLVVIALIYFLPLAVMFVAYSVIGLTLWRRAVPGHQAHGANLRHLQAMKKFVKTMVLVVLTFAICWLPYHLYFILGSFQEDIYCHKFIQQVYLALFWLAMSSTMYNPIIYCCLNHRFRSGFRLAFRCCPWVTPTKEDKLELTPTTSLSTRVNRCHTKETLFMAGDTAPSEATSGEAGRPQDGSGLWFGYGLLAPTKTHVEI", "chain of UniProt Q13393 (whole entry, looked up)": "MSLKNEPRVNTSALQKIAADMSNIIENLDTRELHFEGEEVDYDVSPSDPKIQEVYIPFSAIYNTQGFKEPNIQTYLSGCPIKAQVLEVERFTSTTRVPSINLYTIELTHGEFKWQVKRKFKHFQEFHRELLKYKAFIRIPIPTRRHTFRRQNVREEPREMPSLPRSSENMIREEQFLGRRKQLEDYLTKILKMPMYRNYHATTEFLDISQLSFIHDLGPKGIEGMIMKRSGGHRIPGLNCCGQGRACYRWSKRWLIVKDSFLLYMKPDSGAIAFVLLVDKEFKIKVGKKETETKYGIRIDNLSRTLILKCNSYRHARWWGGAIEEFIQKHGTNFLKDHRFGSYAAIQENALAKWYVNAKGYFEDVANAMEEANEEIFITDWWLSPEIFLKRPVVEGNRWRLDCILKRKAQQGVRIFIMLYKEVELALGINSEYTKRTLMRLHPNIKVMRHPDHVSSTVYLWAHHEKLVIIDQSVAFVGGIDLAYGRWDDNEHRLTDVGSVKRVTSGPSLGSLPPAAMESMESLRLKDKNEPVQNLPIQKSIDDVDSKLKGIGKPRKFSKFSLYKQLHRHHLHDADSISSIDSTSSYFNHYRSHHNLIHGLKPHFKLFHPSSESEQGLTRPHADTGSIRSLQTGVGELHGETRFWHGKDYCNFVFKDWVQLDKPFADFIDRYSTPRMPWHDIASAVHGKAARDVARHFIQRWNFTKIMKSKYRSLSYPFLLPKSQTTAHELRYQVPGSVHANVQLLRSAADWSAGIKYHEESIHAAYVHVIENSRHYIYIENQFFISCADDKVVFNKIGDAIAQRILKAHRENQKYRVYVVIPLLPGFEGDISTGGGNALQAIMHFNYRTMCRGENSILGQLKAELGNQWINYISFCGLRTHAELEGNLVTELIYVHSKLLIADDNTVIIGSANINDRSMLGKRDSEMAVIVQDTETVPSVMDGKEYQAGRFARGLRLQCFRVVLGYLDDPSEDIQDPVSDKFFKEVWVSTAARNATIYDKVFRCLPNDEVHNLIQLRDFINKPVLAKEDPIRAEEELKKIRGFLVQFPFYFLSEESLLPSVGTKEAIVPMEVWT", "chain of UniProt Q16706 (whole entry, looked up)": "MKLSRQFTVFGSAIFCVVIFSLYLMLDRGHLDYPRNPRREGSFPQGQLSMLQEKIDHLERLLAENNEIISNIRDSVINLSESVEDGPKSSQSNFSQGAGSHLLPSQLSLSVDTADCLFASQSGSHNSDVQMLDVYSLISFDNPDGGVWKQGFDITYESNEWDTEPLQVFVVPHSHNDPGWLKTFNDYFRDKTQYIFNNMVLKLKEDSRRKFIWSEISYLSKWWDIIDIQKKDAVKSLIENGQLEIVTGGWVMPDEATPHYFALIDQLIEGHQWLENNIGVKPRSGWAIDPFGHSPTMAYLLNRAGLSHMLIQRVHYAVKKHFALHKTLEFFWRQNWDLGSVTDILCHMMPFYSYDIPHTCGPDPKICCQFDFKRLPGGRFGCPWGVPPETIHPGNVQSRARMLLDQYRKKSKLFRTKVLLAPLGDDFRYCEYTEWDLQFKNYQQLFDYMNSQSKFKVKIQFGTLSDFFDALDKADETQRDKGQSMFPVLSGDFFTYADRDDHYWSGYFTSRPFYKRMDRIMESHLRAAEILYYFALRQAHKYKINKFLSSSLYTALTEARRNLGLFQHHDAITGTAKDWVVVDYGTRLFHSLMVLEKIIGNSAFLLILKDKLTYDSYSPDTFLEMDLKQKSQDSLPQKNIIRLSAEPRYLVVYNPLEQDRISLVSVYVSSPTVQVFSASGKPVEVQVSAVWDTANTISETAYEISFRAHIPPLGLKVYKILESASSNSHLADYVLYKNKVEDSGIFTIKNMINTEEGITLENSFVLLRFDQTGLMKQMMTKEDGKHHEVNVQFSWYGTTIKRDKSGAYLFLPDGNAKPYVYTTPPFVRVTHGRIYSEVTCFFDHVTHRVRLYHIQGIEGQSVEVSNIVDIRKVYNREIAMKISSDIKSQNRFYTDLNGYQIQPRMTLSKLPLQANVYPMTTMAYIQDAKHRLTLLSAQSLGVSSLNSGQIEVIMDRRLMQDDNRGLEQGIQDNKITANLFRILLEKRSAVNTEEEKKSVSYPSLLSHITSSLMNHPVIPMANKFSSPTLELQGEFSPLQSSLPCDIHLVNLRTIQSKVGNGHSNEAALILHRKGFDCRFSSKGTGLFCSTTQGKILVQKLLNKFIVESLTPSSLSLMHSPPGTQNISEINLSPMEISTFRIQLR", "chain of UniProt Q6XEC0 (whole entry, looked up)": "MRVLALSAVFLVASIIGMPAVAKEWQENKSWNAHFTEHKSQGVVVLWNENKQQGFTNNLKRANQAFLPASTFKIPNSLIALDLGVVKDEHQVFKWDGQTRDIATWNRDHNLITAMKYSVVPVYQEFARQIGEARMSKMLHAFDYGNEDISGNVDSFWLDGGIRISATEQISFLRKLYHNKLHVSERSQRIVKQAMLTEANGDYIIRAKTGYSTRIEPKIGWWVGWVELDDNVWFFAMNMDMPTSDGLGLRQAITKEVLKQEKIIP"}
{"SMILES": "COc1ccc(-c2ccc(OC)c(NC(=O)[C@H](C)CS)c2)nn1", "target": "Metallo-beta-lactamase VIM-2 (VIM-2, Escherichia coli, UniProt Q5U7L7)", "test": "enzyme activity, inhibitor, fluorescence", "setting": "with preincubation", "IC50 [µM]": 0.056}
{"SMILES": "C[C@@H](O)[C@H](NC(=O)[C@@H](N)CO)C(=O)N[C@H]1CSC(=O)[C@H](Cc2ccccc2)NC(=O)[C@H](Cc2ccc(O)cc2)NC(=O)[C@H](Cc2ccc(O)cc2)NC(=O)[C@H](CO)NC1=O", "target": "accessory gene regulator AgrC (Staphylococcus aureus, UniProt A0A0H2XKA3)", "IC50 [µM]": 0.003}
{"SMILES": "C[C@]1(COC(=O)c2ccc(O)c(O)c2)[C@H](C(=O)O)N2C(=O)/C(=C/c3ccccn3)[C@H]2S1(=O)=O", "target": "Beta-lactamase OXA-48 (OXA-48, Klebsiella pneumoniae, UniProt Q6XEC0)", "test": "inhibitor", "setting": "added: nitrocefin", "IC50 [µM]": "0.013 ± 0.002"}
{"SMILES": "NC(=O)c1cccc(CCN(CC[C@H](N)C(=O)O)C[C@H]2O[C@@H](n3cnc4c(N)ncnc43)[C@H](O)[C@@H]2O)c1", "target": "Histone-lysine N-methyltransferase EHMT2 (EHMT2, Homo sapiens, UniProt Q96KQ7)", "test": "enzyme activity, inhibitor, radiometric", "IC50 [µM]": "> 50"}
{"SMILES": "O=C(NCCN1CCC2(CC1)C(=O)NCN2Cc1cccnc1)c1c[nH]c2ccccc12", "target": "Phospholipase D1 (Homo sapiens, UniProt Q13393)", "test": "enzyme activity, inhibitor", "IC50 [µM]": "> 20"}
{"SMILES": "O=C(O)CN(CC(=O)O)CP(=O)(O)O", "target": "IMP-28 metallo-beta-lactamase", "test": "enzyme activity, inhibitor, FC5 fluorescent substrate", "setting": "60 pM enzyme, 1 µM ZnSO4", "IC50 [µM]": "39 ± 7"}
{"SMILES": "CN(C)c1nc2sc3c(N4CCNCC4)nnnc3c2c2c1CCCC2", "target": "Beta-glucuronidase (Streptococcus agalactiae serotype V, UniProt Q8E0N2)", "test system": "Streptococcus agalactiae", "IC50 [µM]": "0.7 ± 0.09"}
{"SMILES": "CC[C@H](C)[C@H](NC(=O)CNC(=O)CNCCOC)C(=O)N[C@@H](CO)C(=O)N[C@@H](CCC(N)=O)C(=O)N[C@H](C(=O)N[C@@H](CC(N)=O)C(=O)N[C@@H](CCC(=O)O)C(=O)N[C@@H](CCCCN)C(=O)N[C@H](C(=O)N[C@@H](CC(N)=O)C(=O)N[C@@H](CCC(N)=O)C(=O)N[C@@H](CO)C(=O)N[C@@H](CC(C)C)C(=O)N[C@@H](C)C(=O)N[C@@H](Cc1ccccc1)C(=O)N[C@H](C(=O)N[C@@H](CCCNC(=N)N)C(=O)N[C@@H](CCCCN)C(=O)N[C@@H](CO)C(=O)N[C@@H](CC(=O)O)C(=O)N[C@@H](CCC(=O)O)C(=O)O)[C@@H](C)CC)[C@@H](C)CC)C(C)C", "target": "hRSV fusion protein 5-helix bundle", "test": "binding, fluorescence polarization", "setting": "added: Fl-C35 tracer 5 nM", "IC50 [µM]": "81 ± 2"}
{"SMILES": "CC(=O)N[C@H]1CCCCn2cc3ccccc3c2SC[C@@H](C(N)=O)NC(=O)[C@H](Cc2ccc(O)cc2)NC(=O)[C@H](CCCNC(=N)N)NC(=O)[C@H](Cc2c[nH]c3ccccc23)NC(=O)[C@H](Cc2c[nH]cn2)NC(=O)[C@H](CC(C)C)NC(=O)[C@H](Cc2ccccc2)NC(=O)[C@H]([C@@H](C)O)NC1=O", "target": "Tyrosine-protein phosphatase non-receptor type 1 (PTPN1, Homo sapiens, UniProt P18031)", "test": "enzyme activity, inhibitor, absorbance", "IC50 [µM]": 10.4}
{"SMILES": "NC[C@@H]1[C@@H](O)[C@@H](O)[C@H]2[C@@H](O)CCCN21", "target": "Alpha-mannosidase 2 (Homo sapiens, UniProt Q16706)", "test": "enzyme activity, inhibitor, 4-MU fluorogenic", "setting": "added: Man-α-4MU 5 mM", "IC50 [µM]": 48}
{"SMILES": "COC1CC(=O)N(C)C=CCCCC(=O)N(C)C(C(C)C)C(=O)N(C)C(CC(C)C)C(=O)OC(C(C)C)CC(C)C1 (stereo not shown)", "target": "Substance-K receptor (TACR2, Homo sapiens, UniProt P21452)", "test": "calcium signal, antagonist", "IC50 [µM]": 4.6}
{"SMILES": "O=P(O)(O)CNCc1ccccc1", "target": "Urease subunit alpha (Sporosarcina pasteurii, UniProt P41020)", "test": "enzyme activity, inhibitor, indophenol colorimetric", "setting": "20 min, pH 7.0, 37 °C, added: 50 mM urea", "IC50 [µM]": "> 1000"}
{"SMILES": "CC[C@H](C)[C@H](NC(=O)CN)C(=O)NCC(=O)N[C@@H](C)C(=O)N[C@H](C(=O)N[C@@H](CC(C)C)C(=O)N[C@@H](CCCCN)C(=O)N[C@H](C(=O)N[C@@H](CC(C)C)C(=O)N[C@H](C(=O)N[C@H](C(=O)NCC(=O)N[C@@H](CC(C)C)C(=O)N1CCC[C@H]1C(=O)N[C@@H](C)C(=O)N[C@@H](CC(C)C)C(=O)N[C@H](C(=O)N[C@@H](CO)C(=O)N[C@@H](Cc1c[nH]c2ccccc12)C(=O)N[C@H](C(=O)N[C@@H](CCCCN)C(=O)N[C@@H](CCCNC(=N)N)C(=O)N[C@@H](CCCCN)C(=O)N[C@@H](CCCNC(=N)N)C(=O)N[C@@H](CCC(N)=O)C(=O)N[C@@H](CCC(N)=O)C(N)=O)[C@@H](C)CC)[C@@H](C)CC)[C@@H](C)O)[C@@H](C)O)C(C)C)C(C)C", "target": "Sodium-dependent dopamine transporter (SLC6A3, Homo sapiens, UniProt Q01959)", "test": "ligand displacement, radioligand", "setting": "cell membranes", "IC50 [µM]": 0.88}
